Results of several laboratories.
Each numbered part is a random draw from the data of one study; scales do not carry over between parts.

Block 1
Target: Ras GTPase-activating protein-binding protein 1, full length (G3BP1, Homo sapiens, UniProt Q13283)
Chain of UniProt Q13283 (whole entry, looked up): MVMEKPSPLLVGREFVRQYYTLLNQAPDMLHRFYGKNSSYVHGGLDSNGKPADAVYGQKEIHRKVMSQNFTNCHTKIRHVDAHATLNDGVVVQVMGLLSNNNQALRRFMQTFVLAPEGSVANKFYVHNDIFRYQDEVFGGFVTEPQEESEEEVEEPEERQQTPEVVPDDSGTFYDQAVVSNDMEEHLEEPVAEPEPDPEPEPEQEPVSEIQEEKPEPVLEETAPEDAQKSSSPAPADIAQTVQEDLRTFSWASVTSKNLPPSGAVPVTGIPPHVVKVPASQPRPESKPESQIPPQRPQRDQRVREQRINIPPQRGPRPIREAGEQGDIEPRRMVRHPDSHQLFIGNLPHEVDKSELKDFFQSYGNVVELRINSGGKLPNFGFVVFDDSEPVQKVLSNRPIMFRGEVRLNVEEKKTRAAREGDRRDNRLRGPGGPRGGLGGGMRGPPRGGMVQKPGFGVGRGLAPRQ
Technique: RNA Bind-n-Seq
Molecule type: RNA
Matrix: in vitro
Concentration: 200 nM
Notes: whole 134-nt RNA, ends assumed
Together with: 150 mM LiCl
Reference: input library
Reading: higher = stronger binding
Library: 7-deaza-guanosine replaces G
Sequence | log2 enrichment
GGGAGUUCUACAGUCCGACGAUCGCAGGAAGUAAAAACAAAUGGAAAUGCUUCGGAUAGUGGCAGGGGUGGGGGUUGCUAAGGAAAGGUUGGGAUGGGAGUGGGUAAAGAGUUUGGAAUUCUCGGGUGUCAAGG | 0.00546
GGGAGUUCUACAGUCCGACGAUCUCCUUCCUUUUUUUGUCUUAAACAUAGGACAUGGAUUUGAUUGACAUACUUUGGAGGCAAGAUAUAGAUCUUGGAGUAAGUCGAGAAGUAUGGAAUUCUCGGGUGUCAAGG | -0.824
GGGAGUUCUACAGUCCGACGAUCACCAUGCAGGUGGGCAUCUUUGGGAAGUGGGGCAAGGGGGGGAUAGGGAGGGGUGUAACACUUUGGGAACAGGUGGUCCCAGGUCGUUUCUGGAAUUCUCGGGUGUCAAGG | 0.408
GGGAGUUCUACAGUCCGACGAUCCUCAAGUCCUGUGCUACACAUCGUAUGUACCGAAUCGGGGUGGGGUGGGUGGGGAAAGUAUUAUGUUACGCCGUUCGGAUCUGCACUUCCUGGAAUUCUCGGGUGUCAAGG | -0.0145
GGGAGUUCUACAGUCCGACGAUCAAGUCCUGUGCUACACAUCGUAUGUACCGAAUCGGGGAAAGGGGAAAGGGAAAGGGGAAAGUAUUAUGUUACGCCGUUCGGAUCUGCACUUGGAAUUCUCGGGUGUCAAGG | 0.829
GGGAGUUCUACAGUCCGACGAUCCACAGACAACACGCACCCACACAGACACAGAGGGAAGGGGUUGGGAUGGGGACAGGGUGCACAGCAGGGCGGGGUAGGAAACCAGCCCCUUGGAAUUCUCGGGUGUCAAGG | 0.528
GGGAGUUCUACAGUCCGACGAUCAGUCCUGUGCUACACAUCGUAUGUACCGAAUCGGGCCCCGGGGCCCCGGGCCCCGGGGAAAGUAUUAUGUUACGCCGUUCGGAUCUGCACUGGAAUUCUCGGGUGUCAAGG | -1.08
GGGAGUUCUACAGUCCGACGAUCAGUCCUGUGCUACACAUCGUAUGUACCGAAUCGGGCCCCGGGCCCCGGGGCCCCGGGGAAAGUAUUAUGUUACGCCGUUCGGAUCUGCACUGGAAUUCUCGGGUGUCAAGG | -2.6
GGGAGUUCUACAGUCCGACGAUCCCUCAAGUCCUGUGCUACACAUCGUAUGUACCGAAUCGGAGGAGGAAAAAGGAAAGUAUUAUGUUACGCCGUUCGGAUCUGCACUUCCAGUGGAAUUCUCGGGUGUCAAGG | -0.627
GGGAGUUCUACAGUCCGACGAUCCACAGACAACACGCACCCACACAGACACAGAGGGAAGGGGUUGGGAUGGGGACAGGGUGCAGAGCAGGGCGGGGUAGGACCCCAGCCCCUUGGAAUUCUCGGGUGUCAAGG | -0.188
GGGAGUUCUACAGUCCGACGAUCUCCUGUGCUACACAUCGUAUGUACCGAAUCGGGGUUUUUGGGGUUUGGGGAAAAAGGGGAAAGUAUUAUGUUACGCCGUUCGGAUCUGCAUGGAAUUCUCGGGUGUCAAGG | -0.404

Block 2
Target: Hepatocyte nuclear factor 3-alpha (Foxa1, Mus musculus, UniProt P35582, residues 1-468, full length assumed)
Technique: EMSA with sequencing
Molecule type: double-stranded DNA, one strand shown
Matrix: in vitro
Concentration: 10 and 20 nM
Notes: whole designed probe, mean of two concentrations, ends assumed
Reference: negative control set to 0
Reading: higher = stronger binding
Target sequence (chain): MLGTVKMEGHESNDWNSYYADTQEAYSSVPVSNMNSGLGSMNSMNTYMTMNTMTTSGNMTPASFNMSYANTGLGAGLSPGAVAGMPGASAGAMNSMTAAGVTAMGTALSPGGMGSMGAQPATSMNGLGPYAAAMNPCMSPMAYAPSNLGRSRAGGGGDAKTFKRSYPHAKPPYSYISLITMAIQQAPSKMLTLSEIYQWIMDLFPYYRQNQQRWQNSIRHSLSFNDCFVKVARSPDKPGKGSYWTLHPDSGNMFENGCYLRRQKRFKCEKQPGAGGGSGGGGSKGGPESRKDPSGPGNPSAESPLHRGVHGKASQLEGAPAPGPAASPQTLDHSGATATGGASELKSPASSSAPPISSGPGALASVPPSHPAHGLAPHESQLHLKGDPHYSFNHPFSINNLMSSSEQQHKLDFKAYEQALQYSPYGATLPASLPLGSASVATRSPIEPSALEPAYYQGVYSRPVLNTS
Sequence | normalised bound fraction [ratio]
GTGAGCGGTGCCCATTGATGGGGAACTTTATCTCTAAAGTGGACATGATTGATGGCACAGGAATGCATTCAGCTGCAAGTAACAGAAAACATGACCAACAATGTGGGAGAGACATAGATGTTTACTTTGCTCATGTAAGAAGATGACAGAGCTTCTTCTCCAAGAAAACACCAAATGGCAGATGACACAGTGCAGTGGGAGGCCCAGAGGCCCTGGGATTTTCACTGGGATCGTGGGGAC | 0.374
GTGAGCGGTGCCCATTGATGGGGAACGGTGTGACATATTCTCACTGCTATATATCAAAGCGTTAATGGTGGAATTTTGTCTTTGTAAAGCATTTGGAGTTATTTTCGAGAAAAGCGCTGTGTAATCTAGGAATTTATTTTAAGAACAACTCCATGTTTGTTGAGATACTTGTTTAGTTATTATGGCTTGGTCTAGTATCTGAAAATAGAATCAAAGTAATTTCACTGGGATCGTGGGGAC | 0.0606
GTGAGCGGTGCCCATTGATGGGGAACGGCAATATAATTATTTACTGGGTGCGTGGCTCACGCCTGTAATCCCAGCATTTTGGGAGGCCTAATTTGTTAAAATGACTAGATCTAAGAAATGTAATCTAAGCCAGTAACTTTCCTCTGTAGTAACAATAGCCGGTTGAAAATGAAAACTACACATTTTCATTCTTTCAGTGGTTCTCTTAAACTTTAGCATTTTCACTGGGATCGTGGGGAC | -0.0277
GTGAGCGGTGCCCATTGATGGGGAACATAGTGGTGAGCTTCTCTATGTTGTGTCTACATGGCTATGATGACAAGTGGAGTTATACGCCTGTGCTCTATACTCACTGAGTCACGAAGAATGTAAACATCCTACCTCGGCCTATCCTTGACCAAAGCACAGCCATGTTCCTTACACTCTGGGTCCCCACGGTTCAGACAGAAGTCTCTCTGACAGACAACATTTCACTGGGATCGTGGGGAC | 0.291
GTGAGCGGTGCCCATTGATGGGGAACGGCCATAAATACATATTCATATACATTTGACTAAATGCCACATATGCTTTAACATTTTCTTTTAAGAAAATGTAACACTTTGAAGATTCAGTGTAATCTTCCAAATAGTAAACTAAATGATTTCCTTAGCTCCTTGACATATCCTAGAGTATCTATTTTAGTTTATAAATATGATTTTAAAAAATTAGGTACATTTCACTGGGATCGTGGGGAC | 0.0594
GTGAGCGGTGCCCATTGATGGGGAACAATCTGTGAGGATTTTTTGTTTAGAAATAAACAAATTACCCACTTCTCACTATCTTTTTGCACTAATACCTTGAAAAAATGTAAATTGGACAGTGTAATCTTGCAAAATTGTTGGCATGTAGGAGAGAATTTTTCTACTTTTCTAAAGATTCAAGACTCGTTTTTGAGTCCTAAAAACAAACACATTAAGGACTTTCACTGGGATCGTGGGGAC | 0.413

Block 3
Target: RNA binding protein fox-1 homolog 2, RRM domain, GST-SBP tag (RBFOX2, Homo sapiens, UniProt O43251-10, residues 100-194)
Technique: RNA Bind-n-Seq
Molecule type: RNA
Matrix: in vitro
Concentration: 365 nM
Notes: natural RNA segment, single round, ends assumed
Reference: no-protein control
Reading: higher = stronger binding
Construct (chain): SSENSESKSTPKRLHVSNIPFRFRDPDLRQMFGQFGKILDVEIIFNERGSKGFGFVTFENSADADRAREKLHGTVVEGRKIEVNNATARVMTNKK
Sequence | RBNS enrichment (R)
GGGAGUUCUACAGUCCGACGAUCCUUAAAUCUCCAUUCUGUUUGUGGUUGCCCCCUCAACCUCCCCUACACCCUUCCUAUUCUUUUUCAUUCUUCUUGCAGUUCUGGGAGUAAAGCUCCCAGCAUAUUUAGAUUGGAAUUCUCGGGUGCCAA | 0.414
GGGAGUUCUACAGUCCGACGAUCUGUUCUUCUCCACCUCCUCAUGGGAUAGGAACUGAAAGAGAACUCAAGGGUUGUCACUUUCCUAGAGGGUGUGAGCGUUCUGCCAGCCACAACCAUGUCUCAGACUCAAGUGGAAUUCUCGGGUGCCAA | 0.357
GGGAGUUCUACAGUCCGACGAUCAAUCUGCUAUUUCUGUUGAAUGGGUCAGUCUUAAAGCUUUAAAAUUCACAUAGGUGGAGUUUCCCAUCUGAAGAUUUCUUUACAAGGACUUUGCUAAGUUCAUCUCAGGGUGGAAUUCUCGGGUGCCAA | 0.246
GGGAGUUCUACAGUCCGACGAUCCUUUUCUCACUCUAGCGCCAAUACUGGCCUGAAGGCUAGAUCCCCAGCGAAAUUCUUGUUCAGGCUGGGUCUGUCGACUUUGACUCUGCUAUUUAUAGAGCCAAUGUGGGUGGAAUUCUCGGGUGCCAA | 0.329
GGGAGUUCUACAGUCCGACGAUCUCAGGGCCAGUGCCAUCUGUGAUUCAUGAUCACUAGGUUAUAGGUGAAAUCUCAGUAAGUUAUUUUGGAGUUUAUUAAAGGUUCACAUUUUAAGUACAACUUUUCAGGCUUGGAAUUCUCGGGUGCCAA | 0.65
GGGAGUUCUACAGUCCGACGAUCUGGAGAACUUUCCAUCUGCUUGUAUUUUCCAUACACAUCCCCAGCCAGAAGUUAGUGUCCGAAGACCGAAUUUUAUUUUACAGAGCUUGAAAACUCACUUCAAUGAACAAUGGAAUUCUCGGGUGCCAA | 0.799
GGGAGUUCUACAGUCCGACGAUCUGGGAGGCCGCCACUGAGCAUCUCUAUUUGUCAUUCCUUUAGCUAUUUAGGGACCAAAGGACCAAACUUUUUAUUGCAGAUGUGUAGCUCUGUCAAUUAGAGGUGGAAUGUGGAAUUCUCGGGUGCCAA | 0.412
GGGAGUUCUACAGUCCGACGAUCCAUGCAUCCUUCGUCUGUCUCAUCAGCACUGGCGUCAUUCCUUACAGUUUACAGAACUCAUGUAACUUGUAGCUAUAAACAUUUUGUGCCAUUAAAGCUCUCACAAAACCUGGAAUUCUCGGGUGCCAA | 0.935
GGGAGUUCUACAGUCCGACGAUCGGGGAAAAGGUACAAUAUGUCAAAGAGAUGAGAGAGUGUUAUUUCUUGGGCAAUUUUCUAUUAGUGUUUCUUAUUUUGGCCAGUUCUUUUAUUUAUGUCCUUGUGACCCAUGGAAUUCUCGGGUGCCAA | 0.504
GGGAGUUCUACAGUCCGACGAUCAUUUUAUUAUGUAUAUUCAAUUCAAAUAUUCUAAUGUCUAGAAAAAUGAAAACCCUGGAUAUUCUGGUCCUGAGUUGUUCAGAUGAGGGAGAGCCAACCUAUAGUUUAACUGGAAUUCUCGGGUGCCAA | 0.64
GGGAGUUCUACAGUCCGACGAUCCUGCUCUAGACUCUUACAAAAUGGCUACACUUAGCACAUACUCUGCCCUGGCUAUAUAUUAUAUUGGGCCAUAGAGAUCAGCAAUGUAUCAAUUAAUAGAUUAAUCCAGAUGGAAUUCUCGGGUGCCAA | 0.455
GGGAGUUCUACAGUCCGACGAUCAGAAGCAAACAAAAUACUUUUACCCACUUAAAAAGAGAAUAUAACAUUUUAUGUCACUAUAAUCUUUUGUUUUUUAAGUUAGUGUAUAUUUUGUUGUGAUUAUCUUUUUGUGGAAUUCUCGGGUGCCAA | 0.552

Block 4
Target: TATA-box-binding protein 1 (TBP1, Arabidopsis thaliana, UniProt P28147, residues 1-200, full length assumed)
Technique: protein-binding microarray
Molecule type: double-stranded DNA, one strand shown
Matrix: in vitro
Concentration: not given
Notes: k-mer, scored over probes, only values ≥0.25
Reading: higher = stronger binding
Target sequence (chain): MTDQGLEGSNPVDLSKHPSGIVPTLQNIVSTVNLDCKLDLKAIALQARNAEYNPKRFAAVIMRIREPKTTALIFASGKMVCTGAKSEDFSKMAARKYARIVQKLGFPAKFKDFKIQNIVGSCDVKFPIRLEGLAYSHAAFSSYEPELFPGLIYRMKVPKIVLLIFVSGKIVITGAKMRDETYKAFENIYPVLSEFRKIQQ
Sequence | E-score
ATCTATA | 0.338
CAATATA | 0.429
GGATAAA | 0.291
ATATCAG | 0.316
ATGATAA | 0.291
TATATCA | 0.422
ATTGATA | 0.327
CATAAAA | 0.335
ACCTTAA | 0.26
ATAATAG | 0.364
ATACTAT | 0.296
GCCTTTA | 0.271
CTTCTTA | 0.291
ATAAAAC | 0.37
AACTTAA | 0.318
TATAGAA | 0.316
CTATATA | 0.485
GTCTATA | 0.338
ATATAAT | 0.462
